Results from different studies.
Numbered parts are unrelated; each lists some results of a single study. Positions count from the first letter of the parent shown.

Study 1
Target: CCND3, cyclin fold, Cln2 fusion (human)
Technique: yeast growth competition, sequencing
Medium: yeast
Notes: weak parent motif
Reference: not given
Reading: higher = stronger binding
Endpoint: normalised enrichment score
Starting sequence: PKN2 docking peptide (human); VSAVQKLDFSDTM; partner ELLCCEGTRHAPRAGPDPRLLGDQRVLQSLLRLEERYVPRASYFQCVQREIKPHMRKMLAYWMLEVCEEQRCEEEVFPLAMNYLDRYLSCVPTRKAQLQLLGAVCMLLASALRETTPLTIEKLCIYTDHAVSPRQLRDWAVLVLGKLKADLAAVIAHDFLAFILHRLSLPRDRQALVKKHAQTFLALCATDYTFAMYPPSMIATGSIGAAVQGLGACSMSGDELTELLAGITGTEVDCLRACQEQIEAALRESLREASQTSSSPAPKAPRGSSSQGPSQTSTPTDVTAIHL
VMAVQKLDFSDTM [S2M]: 0.153
QSAVQKLDFSDTM [V1Q]: 0.15
VSAEQKLDFSDTM [V4E]: 0.138
VSAVQKLRFSDTM [D8R]: 0.107
VSAVQKSDFSDTM [L7S]: 0.0747
VSAVQKLDFSGTM [D11G]: 0.116
VSAIQKLDFSDTM [V4I]: 0.157
VSAAQKLDFSDTM [V4A]: 0.117
VNAVQKLDFSDTM [S2N]: 0.107
VSAVQKDDFSDTM [L7D]: 0.125
VSEVQKLDFSDTM [A3E]: 0.0381
VSAVQKLDFSDQM [T12Q]: 0.0807
VSAVQKLDHSDTM [F9H]: 0.0703
VSAVQKLDFSYTM [D11Y]: 0.0675
VSAVQKRDFSDTM [L7R]: 0.139
VSAMQKLDFSDTM [V4M]: 0.0944
VSAHQKLDFSDTM [V4H]: 0.102
VSAVQKLDFSDTI [M13I]: 0.147
VSAVQKLDVSDTM [F9V]: 0.0685
VSAVQKLDFSDTW [M13W]: 0.134
VSAWQKLDFSDTM [V4W]: 0.0845
VIAVQKLDFSDTM [S2I]: 0.122
VSAVQALDFSDTM [K6A]: 0.15
VSAVQWLDFSDTM [K6W]: 0.145
VSDVQKLDFSDTM [A3D]: 0.00507

Study 2
Target: Sal-like protein 4, full length isoform A (SALL4, Homo sapiens, UniProt Q9UJQ4, residues 1-1053)
UniProt Q9UJQ4, sequence (whole entry, looked up): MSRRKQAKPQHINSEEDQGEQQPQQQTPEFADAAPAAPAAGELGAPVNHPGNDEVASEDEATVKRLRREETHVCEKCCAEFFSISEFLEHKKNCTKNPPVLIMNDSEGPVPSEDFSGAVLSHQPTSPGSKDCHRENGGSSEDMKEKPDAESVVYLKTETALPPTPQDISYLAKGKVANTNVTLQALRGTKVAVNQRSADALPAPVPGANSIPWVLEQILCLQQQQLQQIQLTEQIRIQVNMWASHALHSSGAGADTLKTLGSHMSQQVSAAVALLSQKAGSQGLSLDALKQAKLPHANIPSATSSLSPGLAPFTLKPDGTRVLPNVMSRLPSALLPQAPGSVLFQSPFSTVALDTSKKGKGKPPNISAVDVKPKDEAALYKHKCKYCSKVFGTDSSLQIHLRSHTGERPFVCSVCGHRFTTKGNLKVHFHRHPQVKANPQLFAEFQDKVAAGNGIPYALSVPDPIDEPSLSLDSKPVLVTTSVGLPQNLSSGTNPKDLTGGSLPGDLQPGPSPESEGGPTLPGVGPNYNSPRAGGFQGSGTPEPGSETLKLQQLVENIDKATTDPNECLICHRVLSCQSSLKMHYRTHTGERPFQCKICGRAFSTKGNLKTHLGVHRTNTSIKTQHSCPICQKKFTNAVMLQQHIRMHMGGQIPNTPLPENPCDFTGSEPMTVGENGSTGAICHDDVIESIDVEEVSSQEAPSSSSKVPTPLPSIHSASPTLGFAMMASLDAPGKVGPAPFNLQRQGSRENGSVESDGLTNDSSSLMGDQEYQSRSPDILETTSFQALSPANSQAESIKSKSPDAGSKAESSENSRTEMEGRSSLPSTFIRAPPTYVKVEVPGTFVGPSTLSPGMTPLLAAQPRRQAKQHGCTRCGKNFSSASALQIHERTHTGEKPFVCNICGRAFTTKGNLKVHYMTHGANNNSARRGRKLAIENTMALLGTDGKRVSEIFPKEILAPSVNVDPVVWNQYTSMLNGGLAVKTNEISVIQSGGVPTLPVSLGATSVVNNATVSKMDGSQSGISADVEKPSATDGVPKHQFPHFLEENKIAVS
Technique: universal PBM
Molecule type: double-stranded DNA, one strand shown
Medium: in vitro
Concentration: 600 nM
Notes: 8-mer, flanks averaged, mean of replicates
Reading: higher = stronger binding
Endpoint: E-score
ATCAAAGG: 0.11
CTCGTAAG: 0.0111
CACAAGGG: -0.236
GAAAGGCA: 0.171
AACACGGC: -0.123
CCATTTCG: -0.125
ACTCAGCA: -0.0549
ATGCTCCG: -0.216
CTGGTACA: 0.0587
ACCTCCCT: -0.164
AACACCAT: 0.0367
TAAGACAA: 0.183
ATCCTACA: 0.00611
TAGTTGAA: 0.259
ACTTTGGA: 0.2
AGGCATCG: -0.209
ATCTCGTG: -0.146
ATTTAAAA: 0.333
CTATCGTA: 0.227
GCGCTATA: 0.176
ACTGTTTA: 0.265
CGCAGATA: 0.0576
CATTGAAG: 0.0555
CATAGATG: 0.0879
CGATGACA: 0.0811

Study 3
Target: Interferon regulatory factor 7, full length, phosphomimetic (IRF7, Homo sapiens, UniProt Q92985, residues 1-503, S101K/S471D/S472D/S475D/S476D/S477D/S483D/S484D/S487D)
UniProt Q92985, sequence (whole entry, unmodified, looked up): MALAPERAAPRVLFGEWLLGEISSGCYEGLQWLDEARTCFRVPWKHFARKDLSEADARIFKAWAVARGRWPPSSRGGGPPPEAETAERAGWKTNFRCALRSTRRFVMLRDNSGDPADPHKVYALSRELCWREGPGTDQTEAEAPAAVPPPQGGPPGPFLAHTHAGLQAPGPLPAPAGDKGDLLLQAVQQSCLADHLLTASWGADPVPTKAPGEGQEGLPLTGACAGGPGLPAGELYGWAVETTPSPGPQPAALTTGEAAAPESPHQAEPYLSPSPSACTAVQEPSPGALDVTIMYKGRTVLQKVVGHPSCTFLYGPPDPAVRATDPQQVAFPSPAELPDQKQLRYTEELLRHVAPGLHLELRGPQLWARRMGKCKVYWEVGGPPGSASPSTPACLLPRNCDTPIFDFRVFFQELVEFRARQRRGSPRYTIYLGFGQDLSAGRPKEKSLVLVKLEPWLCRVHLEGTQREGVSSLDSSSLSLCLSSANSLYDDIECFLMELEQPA
Technique: protein-binding microarray
Molecule type: double-stranded DNA, one strand shown
Medium: in vitro
Concentration: 250 nM
Notes: 60-bp whole probe
With: salmon DNA 0.4 mg/ml
Reference: random background probes
Reading: higher = stronger binding
Endpoint: log fluorescence
Constant ends, left off below: GCCTAGCAC … GTCTTGATTCGCTTGACGCTGCTG
TCAGCTCTAGGTTCTCTGAAGGTGCTA: -0.723 z-score
GACGGTTTCAGTTTCGGGACGTGCTAG: 7.71 z-score
TCATTTCTCTATTGCTTACTGTGCTAG: 2.35 z-score
TTAGGTTTCGACACAGGGTTAGTGCTA: 3.8 z-score
TTAGGTTTCGACTATAGGTTAGTGCTA: 4.38 z-score
TTAGATTTCAGTTCCGATTTGTGCTAG: 4.08 z-score
CACCGTCTTATTAAAAAACAGTGCTAG: 0.542 z-score
GACGGACTGGGGACTGGGTACGTGCTA: -0.544 z-score
GACGATTTCGTGTATCGAGACGTGCTA: 0.392 z-score
GACGGTATCGGACTGTGGACGTGCTAG: -0.103 z-score
TACGATATCAGTTTCGAGACGTGCTAG: 4.38 z-score
TTAGGTATCCTTATTCTTTAGTGCTAG: 0.42 z-score
TCAACTTGTCTTTTCACACTGTGCTAG: 0.441 z-score
TTAGGTCTCGGATTGGGTTAGTGCTAG: 3.16 z-score
TTAGAGTTCGGGACTGGATTAGTGCTA: -0.376 z-score
TTAGGTATCCTTATCCCTTAGTGCTAG: 0.373 z-score
TTGTTTCCATTTTCTGAATGCGTGCTA: 7.71 z-score
GACGGTCTCTTACTGCTGACGTGCTAG: -0.463 z-score
CATCATTGCCTATTTTTCACCGTGCTA: 0.0215 z-score
TTCGAACTGAGTCTCGATTAGTGCTAG: 1.13 z-score

Study 4
Target: RNA binding protein fox-1 homolog 2, RRM domain, GST-SBP tag (RBFOX2, Homo sapiens, UniProt O43251-10, residues 100-194)
Technique: RNA Bind-n-Seq
Molecule type: RNA
Medium: in vitro
Concentration: 365 nM
Notes: natural RNA segment, single round, ends assumed
Reference: no-protein control
Reading: higher = stronger binding
Endpoint: RBNS enrichment (R)
Constant ends, left off below: GGGAGUUCUACAGUCCGACGAUC … UGGAAUUCUCGGGUGCCAA
Target sequence (chain): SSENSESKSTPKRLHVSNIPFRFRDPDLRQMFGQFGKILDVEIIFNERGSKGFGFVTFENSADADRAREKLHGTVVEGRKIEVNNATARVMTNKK
AUUAAACAUGGCGUUAUUUAAGUAGUCCUGCUGCAAGAAAGGCACUUCAGUGAAUAUGUGACUAGUAAAGCUUAAAUAUGUUUGGAUCUAAUAGAGCUCAUGAAAUACUG: 0.739
ACACAAUUGUUCAUUGUGGUUUGUAUCCCAGAAUGUGUUGUGUUUUUUAAAAGAUGCAUAAUAGCUGAAUGUAUGCAUGACUUUGAAAGAAGUUAAAAUGGUGAUUUUUU: 5.92
CUGUCCCUGUAUCCAGAGCUGGGCCACAGAGGUUUGUAGAGCCUGGGACAGGACACACCAGAGCUAAGGCCGCAUUGCUUUUGUCAAAGUCUCCUCCUCUGACUGGUUUC: 0.303
AAAAUGGUAUCUUACUGACUCUGUUUACUUAUGUGUACAAUUCUGGAAAAUAAAUUUUUUUAUUCUACCACUGUUGAAACACUUUGUCAUCUUAAAAAUUCUUGAAAAUU: 0.386
UUACUGUUGUUUAGAAAUUUGCAAGGGCUUCUUUUCCGCAAAUGCCACCAGCAGAUUAUAAUUUUGUCAGCAAUGCUAUUAUCUCUAAUUAGUGCCACCAGACUAGACCU: 0.333
CCUCUUUAUCCAACAGAUAAAAGAAGGAACAUUGCAGAGCUAAGCAGAGGUGGCACGGAGGCAAUUGGGGAGUUCUUACUGAAUCCUCCUUUUCCACCCCACACCCUGAA: 0.168
UCUUUUUCUAUUUGUAGGUCAAAGACAAGUGCCUUCUAUGGCAUGGGAAAGGGCUUUAUUCUUAUAAGAGUCUGGCCUGUCUUAACUAGAAGACGGGUAGGAAGGAUACU: 0.256
CCUCCUGCAGCUGUGCCGUCCACACCUCUAGGUCGCCAGAGCCCUGGCCCCCAGCCCCCAGCAAGCCUGAGCCCGGGAAGAACCAGAGGCCCUCCCGAGAGACCCAGUCA: 0.306
GGUGCCCAAAUUGCCAGCUGGCAAAAUGAAUAACCGUGAUCUCAAACCCCAGCCUGAUAUAGUCUUGCUUCCGUUGCCCACUGCCUAUGAGCUAGACAGCACCAAACUGA: 0.518
AAAAAUCCACUCAUAUAAAAGGUGAGCUCAGCUCACUGGUCCAUUUCUCAGUGGCUUCUCCAUCCUCAUUUGCAAACCUCAGAGGGAUAAGGCAGUUGAACCUGAUGAGC: 0.44
UGGCUGCCCUGUGCAGGCUGUCAUCAGAGUUCUCCAUGUGGGUCAAUACCUGCACCCCCAGGAAGAGGGCAUUCCCCAGCAGGCCUCUGCAGAUCCUGCGGGUGGGAGGA: 0.328
ACGGCAGAGGCCUCCUGGCCUCAGGGCAUGCCCUGCCUACCUUCUGAAAUGUUUACCCCAUUGACCAAACUUGGCUCCAGCCAUUGCGGUGGUUUCUAGAUAGCCAGGCC: 0.474

Study 5
Target: CREB3, bZIP domain (human)
Technique: DHFR protein complementation
Medium: yeast
Notes: single substitutions, most at no-binding floor
Reference: wild-type JUN-FOS pair
Reading: higher = stronger binding
Endpoint: binding fitness
Starting sequence: JUN, bZIP domain (human); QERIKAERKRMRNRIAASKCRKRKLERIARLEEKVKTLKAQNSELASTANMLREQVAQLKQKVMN; partner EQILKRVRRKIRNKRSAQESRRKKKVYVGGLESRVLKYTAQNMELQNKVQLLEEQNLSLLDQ
Q55W: -1.46 natural log
A40L: -1.45 natural log
E54I: -1.54 natural log
K36G: -1.45 natural log
L31K: -1.55 natural log
E33W: -1.48 natural log
E32W: -1.45 natural log
L31N: -1.38 natural log
A40N: -1.13 natural log
L38I: -1.23 natural log
L31C: -1.45 natural log
N42F: -1.38 natural log
K39V: -1.47 natural log
E54F: -1.54 natural log
E54L: -1.32 natural log
E33A: -1.38 natural log
A49K: -1.44 natural log
Q41M: -1.47 natural log
K36S: -1.29 natural log
L45R: -1.52 natural log
E33H: -1.45 natural log
A40Q: -1.4 natural log
A49Y: -1.36 natural log
R30D: -1.52 natural log
V56Y: -1.48 natural log

Mixed results
PhoQ, residues 284 288 289 292 302 303 NSMLDC  fold induction (PhoP, residues 12 14 15 18 19 LWHVM (Escherichia coli, UniProt P23836); Sort-seq, measured: YFP reporter; E. coli; PhoQ-PhoP variant library, with: 10 µM Mg2+; reference: high Mg2+ state, higher = stronger signaling): 23.8
